Measured values gathered from unrelated publications.
A part holds a random share of what one study measured.
Sequence of UniProt P11388 (whole entry, looked up): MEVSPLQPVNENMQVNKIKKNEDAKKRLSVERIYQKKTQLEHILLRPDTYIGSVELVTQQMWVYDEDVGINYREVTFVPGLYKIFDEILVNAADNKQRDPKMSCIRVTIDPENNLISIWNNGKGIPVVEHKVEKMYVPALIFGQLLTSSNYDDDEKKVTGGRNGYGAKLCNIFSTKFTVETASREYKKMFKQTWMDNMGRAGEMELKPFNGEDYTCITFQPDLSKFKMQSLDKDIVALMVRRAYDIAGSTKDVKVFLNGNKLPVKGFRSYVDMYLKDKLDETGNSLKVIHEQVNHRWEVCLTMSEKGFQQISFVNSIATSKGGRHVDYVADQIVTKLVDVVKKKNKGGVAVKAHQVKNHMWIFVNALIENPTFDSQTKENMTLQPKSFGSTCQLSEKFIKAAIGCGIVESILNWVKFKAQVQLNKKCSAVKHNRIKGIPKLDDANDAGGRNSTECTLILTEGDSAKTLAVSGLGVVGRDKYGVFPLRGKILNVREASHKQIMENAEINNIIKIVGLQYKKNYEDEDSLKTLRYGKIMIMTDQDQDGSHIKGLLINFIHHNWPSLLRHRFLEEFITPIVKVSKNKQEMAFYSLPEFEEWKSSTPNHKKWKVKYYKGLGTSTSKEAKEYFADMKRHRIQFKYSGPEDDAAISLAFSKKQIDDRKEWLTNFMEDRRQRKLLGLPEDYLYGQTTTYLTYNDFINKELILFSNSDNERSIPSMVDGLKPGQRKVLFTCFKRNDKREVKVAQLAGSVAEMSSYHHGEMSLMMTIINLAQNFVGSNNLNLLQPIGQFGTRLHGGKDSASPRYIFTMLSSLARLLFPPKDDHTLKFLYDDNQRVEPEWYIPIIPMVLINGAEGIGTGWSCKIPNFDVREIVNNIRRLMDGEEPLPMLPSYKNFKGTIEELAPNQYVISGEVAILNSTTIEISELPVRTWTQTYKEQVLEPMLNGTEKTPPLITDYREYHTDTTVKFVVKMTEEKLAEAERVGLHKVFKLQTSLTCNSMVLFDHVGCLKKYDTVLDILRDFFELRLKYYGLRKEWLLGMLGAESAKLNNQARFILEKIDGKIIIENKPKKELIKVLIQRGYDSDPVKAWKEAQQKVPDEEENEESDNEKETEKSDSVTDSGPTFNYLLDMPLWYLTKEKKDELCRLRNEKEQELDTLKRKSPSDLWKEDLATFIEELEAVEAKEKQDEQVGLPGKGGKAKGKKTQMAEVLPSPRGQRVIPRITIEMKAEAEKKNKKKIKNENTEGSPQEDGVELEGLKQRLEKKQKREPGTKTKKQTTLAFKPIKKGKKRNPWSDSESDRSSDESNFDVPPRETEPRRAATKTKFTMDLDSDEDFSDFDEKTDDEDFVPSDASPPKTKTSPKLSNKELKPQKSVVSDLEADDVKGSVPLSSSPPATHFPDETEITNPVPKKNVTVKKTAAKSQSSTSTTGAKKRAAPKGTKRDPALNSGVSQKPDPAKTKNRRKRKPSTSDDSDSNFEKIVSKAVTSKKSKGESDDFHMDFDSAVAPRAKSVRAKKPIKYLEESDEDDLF

Set 1
SMILES: CO/N=C(\C(=O)N[C@@H]1C(=O)N2C(C(=O)O)=C(COC(C)=O)CS[C@H]12)c1csc(N)n1
Organism: Pseudomonas aeruginosa
It gave > 16 µg/mL for MIC (clinical isolate RKI-No_481/15).
It gave > 16 µg/mL for MIC (clinical isolate RKI-No_497/15).
For clinical isolate RKI-No_479/15: MIC read > 16 µg/mL.
broth microdilution; clinical isolate RKI-No 485/15-1 — MIC: > 16 µg/mL.

Set 2
Target: Replicase polyprotein 1ab, nsp14 (rep, Severe acute respiratory syndrome coronavirus 2, UniProt P0DTD1)
Action: inhibitor
`COc1ccccc1CNC(=O)c1cc(S(=O)(=O)N2CCCc3ccccc32)c(C)n1C` has an IC50 of > 6.25 µM.
The IC50 of `COc1ccccc1CNC(=O)c1cc(S(=O)(=O)N2Cc3ccccc3C2)c(C)n1C` is reported as 0.016 µM.
`COc1ccccc1CNC(=O)c1cc(S(=O)(=O)N2CCCCC2)c(C)n1C` gave an IC50 of 1.5 µM.
For `COc1ccccc1CN(C)C(=O)c1cc(S(=O)(=O)N2CCC(C)CC2)c(C)n1C`, the IC50 was > 6.25 µM.
For `Cc1c(S(=O)(=O)N2CCc3nn(C)cc3C2)cc(C(=O)NCc2cccnc2N2CCCC2)n1C`, the IC50 was 0.16 µM.
`CCC1CCN(S(=O)(=O)c2cc(C(=O)NCc3ccccc3OC)n(C)c2C)CC1` gave an IC50 of 0.54 µM.
For `Cc1c(S(=O)(=O)N2CCn3nccc3C2)cc(C(=O)NCc2c(F)ccc3cnn(C)c23)n1C`, the IC50 was 0.0004 µM.

Other studies, line by line
`Fc1ccccc1Cc1nc(-c2nc(C(F)(F)F)n[nH]2)cn2ccnc12` — result for “subjects with adverse events”: 30.8% (refers to: ALL; healthy humans; oral, 10 mg, fed, single dose).
`N#CCC1CCN(c2nc(Nc3ccc(N4CCC(O)CC4)cc3)c3c(=O)[nH]ncc3n2)CC1` — result for “IL-18 level difference”: -1.42 (vs placebo, Olink multiplex; human, serum; 80 mg, day 15, unit not given; baseline: placebo).
`COC(=O)Nc1c(N)nc(-c2nn(Cc3ccccc3F)c3ncc(F)cc23)nc1N` has a Cmax of 269 ng/mL (human, plasma; 10 mg, alone, geometric mean).
The inhibition of `COc1cc([C@@H]2c3cc4c(cc3[C@@H](O[C@@H]3O[C@@H]5CO[C@@H](C)O[C@H]5[C@H](O)[C@H]3O)[C@H]3COC(=O)[C@H]23)OCO4)cc(OC)c1O` is reported as 100% (TOP2A (Homo sapiens, UniProt P11388); enzyme activity, inhibitor; 125 µM).
For `CC1COc2ccccc2N1C(=O)C(Cl)Cl` (stereo not shown), the enantiomeric fraction was 0 (glutathione S-transferase; male rhesus monkey liver cytosol; 5 µM, 30 min, pH 7.4, added: GSH).

A few entries again (set 1):
It gave > 16 µg/mL for MIC (clinical isolate RKI-No_481/15).
For clinical isolate RKI-No_479/15: MIC read > 16 µg/mL.
It gave > 16 µg/mL for MIC (clinical isolate RKI-No_497/15).
